Results of several laboratories.
Medium: plasma
Route: oral

CC(=O)N[C@H]1CC[C@H](NC(=O)CN2CCN(c3nncc(-c4ccc(C)cc4)n3)CC2)CC1  Tmax (human; 10 mg, single dose, fasted, healthy volunteers): 1.3 h
CNc1nc(Nc2ccc(-n3cnc(C)n3)c(OC)c2)nc2c1CC[C@H]2c1ccc(F)cc1  Tmax (human; 300 mg, single dose, fasted, healthy volunteers): 3.5 h
Nc1ncc(-c2cnn(CCO)c2)c2scc(-c3ccc(NC(=O)Nc4cccc(F)c4)cc3)c12  Tmax (human; 340 mg, patients): 3 h
C#C[C@]1(CO)O[C@@H](n2cnc3c(N)nc(F)nc32)C[C@@H]1O  Tmax (human; 30 mg, single dose, fasted): 0.5 h
CS(=O)(=O)n1cc2c(n1)CN([C@H]1CO[C@H](c3cc(F)ccc3F)[C@@H](N)C1)C2  Tmax (male human; 10 mg, single dose, fasted): 1 h
CCCOc1ccc([C@H]2CNC(=O)N2c2ccc3[nH]cnc3c2)cc1  Tmax (human; 30 mg, single dose, fasted): 0.5 h
O=C(c1nc2n(n1)[C@H](c1ccccc1)C[C@@H]2F)C1CC1  Tmax (human; 5 mg, single dose, fasted, healthy volunteers): 1.29 h
COc1cccc(-c2ccc(NC(=O)C3=C(C(=O)O)CCC3)c(F)c2)c1  Tmax (male human; 20 mg, single dose, fasted, healthy volunteers): 4 h
C[C@@H]1CCC[C@H](n2cnc(-c3cc(Cl)ccc3-n3cc(Cl)nn3)cc2=O)c2cc(ccn2)-c2c(cnn2C(F)F)NC1=O  Tmax (human; 200 mg, single dose, fed, healthy volunteers): 4 h

For quick reference, copied from above:
C[C@@H]1CCC[C@H](n2cnc(-c3cc(Cl)ccc3-n3cc(Cl)nn3)cc2=O)c2cc(ccn2)-c2c(cnn2C(F)F)NC1=O  Tmax (human; 200 mg, single dose, fed, healthy volunteers): 4 h
